Results pooled from the literature.
Compare with care: the assays were run in different laboratories. ± gives the spread as reported.

`CC[C@H](CC[C@@H](C)[C@H]1CC[C@H]2[C@@H]3CC=C4C[C@@H](O[C@@H]5O[C@H](CO)[C@@H](O)[C@H](O)[C@H]5O)CC[C@]4(C)[C@H]3CC[C@]12C)C(C)C` gave an IC50 of 97 µM (ABTS scavenging, absorbance; 15 min).
Under “mean survival time”, `O=c1[nH]cc(F)c(=O)[nH]1` is recorded as 16.6 days (Ehrlich ascites carcinoma mouse; dose not given).
Under urine volume, `N=C(N)NC(=O)c1nc(Cl)c(N2CCCCCC2)nc1N` is recorded as “no effect” (Sprague-Dawley rat; iv, 1.5 mg/kg, 6 h, added: acetazolamide 25 mg/kg; relative to: acetazolamide alone).
`CCCN1CCC[C@@H]2Cc3n[nH]cc3C[C@H]21` — result for “dose for full substitution”: 0.061 to 0.18 mg/kg (cocaine-appropriate responding, drug discrimination; male rats trained on cocaine; intraperitoneal, AFR, added: cocaine 10 mg/kg training dose).
For `CCS(=O)(=O)Nc1ccc(Oc2ccc(F)cc2F)c(-c2cn(C)c(=O)c3[nH]ccc23)c1`, the median survival was 121 days (mouse, MP41 metastatic uveal melanoma xenograft; oral, 2 mg/kg 5 times weekly).
`CN[C@@](C)(C[18F])C(=O)O` gave a tracer uptake of 2.7 %ID/g (DU-145 tumour model; host not given, heart; 15 min, tumour-bearing).
With `CC[C@@H]1NC(C)(C)CO[C@@]1(O)c1cccc(Cl)c1` the AD50 was 0.004 mg/kg (nicotine antinociception blockade, antagonist, tail-flick test; mouse; 15 min pretreatment, added: nicotine 2.5 mg/kg subcutaneous).
Under “time to platelet recovery”, `NCC(=O)Nc1cncc(-c2nn3c(=O)cc(N4CCNCC4)nc3s2)c1` is recorded as about 90 min (platelet function, VerifyNow iso-TRAP; STEMI patients; subcutaneous, 0.075 to 0.11 mg/kg; return to 50% inhibition).
`Oc1cc2c(cc1O)C(c1ccccc1)CNCC2` (stereo not shown): “dose for full substitution” 32 mg/kg (cocaine-appropriate responding, drug discrimination; male rats trained on cocaine; intraperitoneal, AFR, added: cocaine 10 mg/kg training dose).
`Cc1cc(O)cc(C)c1C[C@H](N)C(=O)N[C@@H]1CCCc2ccc(Cc3ccc4ccccc4c3)cc21` — result for antinociception: “inactive” (warm water tail withdrawal; C57BL/6 mice; intraperitoneal, up to 10 mg/kg cumulative).
The median survival of `O=C1C2=C(CCN(Cc3ccccc3)C2)N2CCN=C2N1Cc1ccc(C(F)(F)F)cc1` is reported as 82 days (PDX AML cells, NSG mice; 250 nM, 36 h, ex vivo treated cells engrafted).
For `C[C@@H]1NC(C)(C)CO[C@@]1(O)c1cccc(Br)c1`, the AD50 was 0.16 mg/kg (nicotine antinociception blockade, antagonist, tail-flick test; mouse; 15 min pretreatment, added: nicotine 2.5 mg/kg subcutaneous).
The AD50 of `CC(NC(C)(C)C)C(=O)c1cccc(Cl)c1` (stereo not shown) is reported as 15 mg/kg (nicotine antinociception, antagonist, hot-plate test; mouse; added: nicotine 2.5 mg/kg s.c.).
`neuropeptide Y`: “cumulative testosterone release” 15.3 ± 2.3 ng/mL (rat, plasma; intratesticular, 2 µg/kg, added: hCG).
`C/C=C(/C)C(=O)O[C@H]1C(C)=C[C@]23C(=O)[C@@H](C=C(CO)[C@@H](O)[C@]12O)[C@H]1[C@@H](C[C@H]3C)C1(C)C` — result for “median survival time”: 16 days (mouse, B16 melanoma; topical, 0.1% gel, two consecutive days).
`CC[C@H](C)[C@H](NC(=O)[C@H](CC(C)C)NC(=O)[C@H](Cc1c[nH]c2ccccc12)NC(=O)[C@H](CCC(N)=O)NC(=O)[C@@H](NC(=O)[C@H](Cc1ccccc1)NC(=O)[C@H](C)NC(=O)[C@H](CCCCNC(=O)COCCOCCNC(=O)COCCOCCNC(=O)CC[C@H](NC(=O)CCCCCCCCCCCCCCCCCCC(=O)O)C(=O)O)NC(=O)[C@H](CCC(N)=O)NC(=O)[C@H](C)NC(=O)[C@@H](NC(=O)[C@H](CCCCN)NC(=O)[C@H](CC(=O)O)NC(=O)[C@H](CC(C)C)NC(=O)C(C)(C)NC(=O)[C@@H](NC(=O)[C@H](CO)NC(=O)[C@H](Cc1ccc(O)cc1)NC(=O)[C@H](CC(=O)O)NC(=O)[C@H](CO)NC(=O)[C@@H](NC(=O)[C@H](Cc1ccccc1)NC(=O)[C@@H](NC(=O)CNC(=O)[C@H](CCC(=O)O)NC(=O)C(C)(C)NC(=O)[C@@H](N)Cc1ccc(O)cc1)[C@@H](C)O)[C@@H](C)O)[C@@H](C)CC)[C@@H](C)CC)C(C)C)C(=O)N[C@@H](C)C(=O)NCC(=O)NCC(=O)N1CCC[C@H]1C(=O)N[C@@H](CO)C(=O)N[C@@H](CO)C(=O)NCC(=O)N[C@@H](C)C(=O)N1CCC[C@H]1C(=O)N1CCC[C@H]1C(=O)N1CCC[C@H]1C(=O)N[C@@H](CO)C(N)=O` — result for “body weight change”: at most 6.6 kg (Japanese type 2 diabetes patients; dose not given, 8 weeks; relative to: placebo).
`CC(C)(NC(=O)O[C@@H]1CN2CCC1CC2)c1csc(-c2ccc(F)cc2)n1` gave a glucosylceramide median of 1.1 µg/mL (sample A patients, plasma; oral, 15 mg once daily, week 52, added: imiglucerase).
`picrotoxin`: “D1-MSN evoked IPSC on ChAT neurons” “inhibited” (synaptic inhibitory current, inhibitor; ChAT neurons, mouse; dose not given, held at 0 mV, added: DNQX and APV).
`C=CC(=O)N1CCC([C@@H]2CCNc3c(C(N)=O)c(-c4ccc(Oc5ccccc5)cc4)nn32)CC1`: “progression-free survival difference” “no effect” (Chinese patients, relapsed/refractory B-cell malignancies; 160 mg twice daily vs 320 mg once daily, log-rank test).
Under “onset of reduced oxygen consumption”, `C=C(C)[C@H]1Cc2c(ccc3c2O[C@@H]2COc4cc(OC)c(OC)cc4[C@@H]2C3=O)O1` is recorded as 12 min (complex I-driven respiration; cortical mitochondria, Fischer 344 rat; 10 pM).
Under blood creatinine, `COc1cccc(O)c1-c1cc(=O)c2c(O)c(OC)c(OC)c(OC)c2o1` is recorded as “decreased” (C57BL/6 mouse, aristolochic acid I renal fibrosis; oral gavage, 30 or 60 mg/kg, day 14, added: aristolochic acid I 10 mg/kg i.p. single; relative to: aristolochic acid I group).
`O=C1O[C@H]([C@@H](O)CO)C(O)=C1O` has an IC50 of 30.4 µM (ABTS scavenging, absorbance; 15 min).
For `O=C(O)Cc1ccccc1Nc1c(Cl)cccc1Cl`, the paw-withdrawal latency was 7.3 ± 2.1 s (thermal hyperalgesia; Sprague-Dawley rat, male, CFA inflammation; subcutaneous, 30 mg/kg, 2 h).
`C[C@@H]1NC(C)(C)CO[C@@]1(O)c1ccc(-c2ccccc2)cc1` has an AD50 of 0.021 mg/kg (nicotine antinociception blockade, antagonist, tail-flick test; mouse; 15 min pretreatment, added: nicotine 2.5 mg/kg subcutaneous).
`CC(=O)N1CC[C@@H](NC(=O)[C@@H](N)Cc2c(C)cc(O)cc2C)c2cc(Cc3ccccc3)ccc21`: antinociception “inactive” (warm water tail withdrawal; C57BL/6 mice; intraperitoneal, up to 10 mg/kg cumulative).
`polymyxin B`: Nrf2-positive area “increased” (immunohistochemistry; Kunming mice, LPS-induced testicular inflammation, testis; oral, dose not given, 20 and 40 days, added: LPS; relative to: LPS alone).
The median survival of `Cc1sc2c(c1C)C(c1ccc(Cl)cc1)=N[C@@H](CC(=O)OC(C)(C)C)c1nnc(C)n1-2` is reported as 40 days (mice, MB002 intracranial xenograft; intraperitoneal, 50 mg/kg daily, added: ribociclib 100 mg/kg oral daily).
Under sodium excretion, `N=C(N)NC(=O)c1nc(-c2cc3ccccc3o2)c(N2CCCCCC2)nc1N` is recorded as “no effect” (Sprague-Dawley rat, urine; iv, 1.5 mg/kg, 6 h, added: acetazolamide 25 mg/kg; relative to: acetazolamide alone).
Under protease cleavage, `O=S(=O)(F)Cc1ccccc1` is recorded as “inhibited” (bait peptide cleavage, inhibitor, MALDI-TOF/TOF; Medicago truncatula culture fluid; 1 mM, 2 h, 4 °C).
For `COc1cc2cc(c1Cl)N(C)C(=O)C[C@H](OC(=O)[C@H](C)N(C)C(=O)CCS)[C@]1(C)O[C@H]1[C@H](C)[C@@H]1C[C@@](O)(NC(=O)O1)[C@H](OC)/C=C/C=C(\C)C2`, the survival was 0% (NSG mice, orthotopic UMUC3 bladder tumour; intravenous, 0.75 mg/kg weekly, 100 days, 3 weeks).
`CN[C@H](CC(C)C)C(=O)N[C@H]1C(=O)N[C@@H](CC(N)=O)C(=O)N[C@H]2C(=O)N[C@H]3C(=O)N[C@H](C(=O)N[C@H](C(=O)O)c4cc(O)cc(O)c4-c4cc3ccc4O)[C@H](O)c3ccc(c(Cl)c3)Oc3cc2cc(c3O[C@@H]2O[C@H](CO)[C@@H](O)[C@H](O)[C@H]2O[C@H]2C[C@](C)(N)[C@H](O)[C@H](C)O2)Oc2ccc(cc2Cl)[C@H]1O` has a microbiological success of 47.4% (Japanese patients with SSTI; intravenous, 1 g twice daily, 7 to 14 days, test-of-cure, MITT-MRSA).
Under “GFP+ EV release into blood”, `CCC1CC(N2CCCCC2)CC(CC)N1C(=O)Oc1c(OC)cc(-c2nc(-c3ccccc3)c(-c3cccs3)[nH]2)cc1OC` (stereo not shown) is recorded as “inhibited” (GFAP-EGFP mice, intrastriatal IL-1β; oral, 10 mg/kg DPTIP equivalent, 30 min before IL-1β, read 4 h after, added: IL-1β).
`C=CP(=O)(Nc1ccccc1)OCC(F)(F)F` (stereo not shown) — result for “second-order rate constant”: 0.021 M⁻¹ s⁻¹ (UPLC; pH 8.5, added: glutathione).
`COC(=O)[C@@H]1C=C(OC(=O)c2ccccc2)C(=O)[C@H]2[C@@]1(C)CC[C@H]1C(=O)O[C@H](c3ccoc3)C[C@]21C`: antinociception “inhibited” (agonist; C57BL/6 mice male; dose not given, added: naloxone pretreatment).
For `O=C1[O][Pt]2([NH][C@@H]3CCCC[C@H]3[NH]2)[O]C1=O` (relative stereo), “tumour growth inhibition” read 34.8% (BALB/c mice, CT26 tumour; oral, 10 mg/kg once daily, 21 days; relative to: control group).
The IC50 of `C[C@@H]1O[C@@H](O[C@@H]2[C@@H](O)[C@H](OCCc3ccc(O)c(O)c3)O[C@H](CO)[C@H]2OC(=O)/C=C/c2ccc(O)c(O)c2)[C@H](O)[C@H](O)[C@H]1O` is reported as 25.6 µM (ABTS scavenging, absorbance; 15 min).
`CN1Cc2ccccc2[C@@H]2c3cccc4[nH]cc(c34)C[C@H]21` — result for spike-LFP synchronization: “decreased” (rat, prefrontal cortex; 10 nmol/kg; relative to: control).

Repeated from above:
`O=C1O[C@H]([C@@H](O)CO)C(O)=C1O` has an IC50 of 30.4 µM (ABTS scavenging, absorbance; 15 min).
`C=CP(=O)(Nc1ccccc1)OCC(F)(F)F` (stereo not shown) — result for “second-order rate constant”: 0.021 M⁻¹ s⁻¹ (UPLC; pH 8.5, added: glutathione).
`COC(=O)[C@@H]1C=C(OC(=O)c2ccccc2)C(=O)[C@H]2[C@@]1(C)CC[C@H]1C(=O)O[C@H](c3ccoc3)C[C@]21C`: antinociception “inhibited” (agonist; C57BL/6 mice male; dose not given, added: naloxone pretreatment).
For `CCS(=O)(=O)Nc1ccc(Oc2ccc(F)cc2F)c(-c2cn(C)c(=O)c3[nH]ccc23)c1`, the median survival was 121 days (mouse, MP41 metastatic uveal melanoma xenograft; oral, 2 mg/kg 5 times weekly).
